Measured values collected from several papers.
Every numbered part comes from another study and shows a few of its results, in no order.
Chain of UniProt Q2M2I8 (whole entry, looked up): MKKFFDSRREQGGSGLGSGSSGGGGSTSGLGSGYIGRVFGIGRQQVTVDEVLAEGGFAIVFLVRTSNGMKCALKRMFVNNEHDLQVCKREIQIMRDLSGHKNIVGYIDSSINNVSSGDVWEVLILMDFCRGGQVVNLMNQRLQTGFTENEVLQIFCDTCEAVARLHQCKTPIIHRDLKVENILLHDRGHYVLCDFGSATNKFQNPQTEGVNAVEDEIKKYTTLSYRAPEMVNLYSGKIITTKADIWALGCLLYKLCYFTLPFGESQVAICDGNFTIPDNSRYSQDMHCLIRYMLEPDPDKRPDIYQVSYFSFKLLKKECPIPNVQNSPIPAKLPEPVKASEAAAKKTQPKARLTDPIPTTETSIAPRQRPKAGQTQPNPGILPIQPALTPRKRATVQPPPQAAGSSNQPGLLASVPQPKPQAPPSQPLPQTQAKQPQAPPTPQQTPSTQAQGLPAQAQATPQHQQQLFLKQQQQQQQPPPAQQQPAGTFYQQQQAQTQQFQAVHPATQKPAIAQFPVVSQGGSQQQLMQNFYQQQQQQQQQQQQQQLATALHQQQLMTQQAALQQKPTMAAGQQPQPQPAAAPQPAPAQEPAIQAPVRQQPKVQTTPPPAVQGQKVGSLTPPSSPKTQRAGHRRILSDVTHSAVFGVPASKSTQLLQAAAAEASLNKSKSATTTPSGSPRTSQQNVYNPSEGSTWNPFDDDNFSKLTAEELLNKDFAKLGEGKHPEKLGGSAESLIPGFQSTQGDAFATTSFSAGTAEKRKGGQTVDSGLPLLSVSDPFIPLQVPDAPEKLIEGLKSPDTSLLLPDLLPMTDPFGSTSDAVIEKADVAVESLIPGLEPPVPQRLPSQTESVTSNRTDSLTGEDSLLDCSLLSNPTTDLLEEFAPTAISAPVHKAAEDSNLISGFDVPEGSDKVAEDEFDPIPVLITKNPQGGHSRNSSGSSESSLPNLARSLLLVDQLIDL
Chain of UniProt Q15208 (whole entry, looked up): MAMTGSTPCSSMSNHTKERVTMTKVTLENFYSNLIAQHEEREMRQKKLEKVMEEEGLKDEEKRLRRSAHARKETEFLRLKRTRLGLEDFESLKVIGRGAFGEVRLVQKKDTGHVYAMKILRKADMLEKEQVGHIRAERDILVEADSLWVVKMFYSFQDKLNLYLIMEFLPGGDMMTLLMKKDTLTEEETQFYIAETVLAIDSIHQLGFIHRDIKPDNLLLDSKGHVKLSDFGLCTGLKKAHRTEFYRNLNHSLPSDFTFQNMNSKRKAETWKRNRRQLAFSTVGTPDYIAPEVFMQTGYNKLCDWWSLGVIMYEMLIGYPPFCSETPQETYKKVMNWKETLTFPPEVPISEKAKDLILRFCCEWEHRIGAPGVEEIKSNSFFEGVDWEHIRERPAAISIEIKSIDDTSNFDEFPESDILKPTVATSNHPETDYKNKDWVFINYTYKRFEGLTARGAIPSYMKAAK
Chain of UniProt Q9P1W9 (whole entry, looked up): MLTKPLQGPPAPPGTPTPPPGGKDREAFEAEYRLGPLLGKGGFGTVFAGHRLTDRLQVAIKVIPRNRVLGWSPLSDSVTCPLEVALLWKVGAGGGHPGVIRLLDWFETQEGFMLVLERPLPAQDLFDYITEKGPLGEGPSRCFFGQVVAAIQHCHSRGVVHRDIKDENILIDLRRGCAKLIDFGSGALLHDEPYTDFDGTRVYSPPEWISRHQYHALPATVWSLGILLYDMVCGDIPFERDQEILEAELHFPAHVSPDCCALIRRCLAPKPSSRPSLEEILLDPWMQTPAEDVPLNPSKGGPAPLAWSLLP
Chain of UniProt Q9UQ88 (whole entry, looked up): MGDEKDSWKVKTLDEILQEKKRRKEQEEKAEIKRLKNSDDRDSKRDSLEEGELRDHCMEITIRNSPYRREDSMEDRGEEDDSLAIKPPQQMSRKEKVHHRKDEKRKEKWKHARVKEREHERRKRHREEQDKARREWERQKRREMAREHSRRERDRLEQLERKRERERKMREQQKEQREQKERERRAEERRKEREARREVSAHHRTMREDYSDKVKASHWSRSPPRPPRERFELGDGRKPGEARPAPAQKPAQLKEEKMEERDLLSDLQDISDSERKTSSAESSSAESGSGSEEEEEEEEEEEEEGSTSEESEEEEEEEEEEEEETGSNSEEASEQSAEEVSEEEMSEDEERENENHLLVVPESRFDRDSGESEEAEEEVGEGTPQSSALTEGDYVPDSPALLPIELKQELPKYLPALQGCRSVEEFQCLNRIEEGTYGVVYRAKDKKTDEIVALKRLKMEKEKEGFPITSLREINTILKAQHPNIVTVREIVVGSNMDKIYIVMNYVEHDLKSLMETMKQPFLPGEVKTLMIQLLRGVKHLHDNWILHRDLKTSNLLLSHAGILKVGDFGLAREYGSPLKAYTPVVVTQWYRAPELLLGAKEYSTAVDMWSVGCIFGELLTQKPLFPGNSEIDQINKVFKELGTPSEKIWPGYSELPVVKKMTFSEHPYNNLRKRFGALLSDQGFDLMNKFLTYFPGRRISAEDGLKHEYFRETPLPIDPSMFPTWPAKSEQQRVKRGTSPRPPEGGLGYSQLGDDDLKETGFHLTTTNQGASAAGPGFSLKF
Chain of UniProt Q59H18 (whole entry, looked up): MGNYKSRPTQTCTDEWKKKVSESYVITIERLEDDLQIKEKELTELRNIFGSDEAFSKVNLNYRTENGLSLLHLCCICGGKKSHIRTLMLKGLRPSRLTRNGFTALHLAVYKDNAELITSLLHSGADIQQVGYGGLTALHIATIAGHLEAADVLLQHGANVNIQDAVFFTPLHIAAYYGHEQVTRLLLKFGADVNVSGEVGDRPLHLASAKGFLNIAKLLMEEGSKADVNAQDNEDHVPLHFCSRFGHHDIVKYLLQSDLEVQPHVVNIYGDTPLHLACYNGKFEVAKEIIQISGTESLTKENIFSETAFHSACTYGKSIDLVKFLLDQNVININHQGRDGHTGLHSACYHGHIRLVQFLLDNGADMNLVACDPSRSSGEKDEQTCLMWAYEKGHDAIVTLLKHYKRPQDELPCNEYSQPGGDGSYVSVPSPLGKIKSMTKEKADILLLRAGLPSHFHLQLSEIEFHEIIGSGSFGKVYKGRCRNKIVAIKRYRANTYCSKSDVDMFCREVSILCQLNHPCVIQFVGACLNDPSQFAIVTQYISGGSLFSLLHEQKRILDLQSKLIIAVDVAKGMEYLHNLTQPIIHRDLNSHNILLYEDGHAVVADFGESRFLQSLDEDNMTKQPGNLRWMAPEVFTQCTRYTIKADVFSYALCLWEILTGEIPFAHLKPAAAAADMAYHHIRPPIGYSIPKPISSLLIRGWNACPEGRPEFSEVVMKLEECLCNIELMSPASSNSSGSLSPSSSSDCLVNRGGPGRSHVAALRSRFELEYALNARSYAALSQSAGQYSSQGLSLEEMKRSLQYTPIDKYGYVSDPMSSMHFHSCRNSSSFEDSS
Chain of UniProt Q8TD08 (whole entry, looked up): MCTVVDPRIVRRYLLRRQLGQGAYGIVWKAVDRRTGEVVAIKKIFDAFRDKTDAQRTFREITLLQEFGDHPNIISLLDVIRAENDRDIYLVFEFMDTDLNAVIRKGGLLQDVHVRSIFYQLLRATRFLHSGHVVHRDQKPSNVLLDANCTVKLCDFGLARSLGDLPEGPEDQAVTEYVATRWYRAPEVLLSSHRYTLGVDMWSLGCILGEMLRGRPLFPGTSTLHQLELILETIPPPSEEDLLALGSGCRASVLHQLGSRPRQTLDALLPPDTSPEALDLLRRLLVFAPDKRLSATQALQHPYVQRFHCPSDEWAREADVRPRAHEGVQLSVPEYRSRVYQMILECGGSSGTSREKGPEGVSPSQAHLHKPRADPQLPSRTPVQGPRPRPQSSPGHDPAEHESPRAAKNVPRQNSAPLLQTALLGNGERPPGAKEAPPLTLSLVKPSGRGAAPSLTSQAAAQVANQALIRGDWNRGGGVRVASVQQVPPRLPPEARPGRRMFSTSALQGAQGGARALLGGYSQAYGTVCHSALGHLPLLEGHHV

Sample 1 — cell line: Huh-7; tested at: 10 µM; time: 24 h; endpoint: viability
CCC[C@H](N[C@@H](C)C(=O)N1[C@H](C(=O)O)C[C@@H]2CCCC[C@@H]21)C(=O)OCC: 99.2%
Nc1ccc(S(=O)(=O)c2ccc(N)cc2)cc1: 104%
CC(=O)Oc1ccc(C(c2ccc(OC(C)=O)cc2)c2ccccn2)cc1: 103%
OC(CCN1CCCCC1)(c1ccccc1)C1CCCCC1 (centres unmarked): 99.6%
Cc1nc(C)c(Cl)c(O)c1Cl: 96.5%
COC(=O)N/N=C/c1c[n+]([O-])c2ccccc2[n+]1[O-]: 87.9%
CO[C@@]12[C@H](COC(N)=O)C3=C(C(=O)C(C)=C(N)C3=O)N1C[C@@H]1N[C@@H]12: 56.6%
CC1(C)[C@@H](OC(=O)CCC(=O)O)CC[C@]2(C)[C@H]3C(=O)C=C4[C@@H]5C[C@@](C)(C(=O)O)CC[C@]5(C)CC[C@@]4(C)[C@]3(C)CC[C@@H]12: 97.3%
Cc1cccc(CN2CCN(C(c3ccccc3)c3ccc(Cl)cc3)CC2)c1 (centres unmarked): 85.8%
N[C@@H](CC(=O)N1CCn2c(nnc2C(F)(F)F)C1)Cc1cc(F)c(F)cc1F: 95.7%
CCN(CC)CCNC(=O)COc1ccc(OC)cc1: 100%

Sample 2 — read-out: enzyme activity; action: inhibitor; tested at: 0.5 µM; reference: control; endpoint: remaining activity
Target: Protein kinase C beta type, isoform beta-II (PRKCB, Homo sapiens, UniProt P05771)
Chain of UniProt P05771 (whole entry, looked up): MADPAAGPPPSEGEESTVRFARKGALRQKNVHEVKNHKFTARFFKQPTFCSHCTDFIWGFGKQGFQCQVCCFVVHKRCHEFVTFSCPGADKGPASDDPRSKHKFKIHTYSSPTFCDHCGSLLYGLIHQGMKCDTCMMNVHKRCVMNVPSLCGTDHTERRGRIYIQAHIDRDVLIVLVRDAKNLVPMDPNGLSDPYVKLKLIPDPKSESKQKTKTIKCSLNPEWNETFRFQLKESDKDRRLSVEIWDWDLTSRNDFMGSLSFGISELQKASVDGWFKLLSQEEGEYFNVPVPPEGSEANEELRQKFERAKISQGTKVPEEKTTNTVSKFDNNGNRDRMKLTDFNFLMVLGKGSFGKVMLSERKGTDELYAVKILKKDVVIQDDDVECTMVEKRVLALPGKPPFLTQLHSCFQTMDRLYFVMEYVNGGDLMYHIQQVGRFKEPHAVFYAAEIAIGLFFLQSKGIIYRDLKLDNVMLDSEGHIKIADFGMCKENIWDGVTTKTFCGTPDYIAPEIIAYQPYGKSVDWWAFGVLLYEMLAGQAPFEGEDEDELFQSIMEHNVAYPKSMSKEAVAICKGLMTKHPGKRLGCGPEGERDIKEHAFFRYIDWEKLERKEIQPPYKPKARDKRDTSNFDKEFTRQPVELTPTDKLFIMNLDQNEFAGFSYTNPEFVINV
O=Nc1c(-c2c(O)[nH]c3ccccc23)[nH]c2ccccc12: 101%
CNc1cc2c(Nc3cccc(Br)c3)ncnc2cn1: 102%
NC(=O)c1cccc(-c2cc(Nc3ccc(OC(F)(F)F)cc3)ncn2)c1: 122%
CCN(CC)CCCCN1c2ccccc2Oc2ccc(Cl)cc21: 102%
C[C@@H](N)[C@H]1CC[C@H](C(=O)Nc2ccncc2)CC1: 124%
NC(=O)c1ccc(-c2nc(-c3ccc4c(c3)OCCO4)c(-c3ccccn3)[nH]2)cc1: 95.2%
COc1cc2c(Nc3ccc(Br)cc3F)ncnc2cc1OCC1CCN(C)CC1: 91.6%
c1cc(-c2cnn3cc(-c4ccc(OCCN5CCCCC5)cc4)cnc23)ccn1: 127%
Nc1nc(Nc2ccc(S(N)(=O)=O)cc2)nn1C(=S)Nc1c(F)cccc1F: 74.5%
O=c1c(-c2ccc(F)cc2)c(-c2ccncc2)[nH]n1-c1ccc(Cl)cc1: 92.4%
COc1cc2c(N3CCN(C(=O)Nc4ccc(OC(C)C)cc4)CC3)ncnc2cc1OCCCN1CCCCC1: 93.1%
CC(C)n1cnc2c(Nc3cccc(Cl)c3)nc(NCCO)nc21: 99.7%
CCCCc1c(-c2ccc(O)cc2)[nH]c2nccnc12: 118%
O=C(c1ccccc1)c1ccc(N2CCOCC2)cc1O: 99.2%
FC(F)(F)c1ccc(/C=C/c2nc(COc3ccc(CCCCn4ccnn4)cc3)co2)cc1: 93.1%
O=C1NC(=O)/C(=C/c2ccc3c(c2)OC(F)(F)O3)S1: 97.6%
O=C1c2ccccc2-c2nc3nnnn3nc21: 29.3%
CC(C)(C)c1nc2c3cc[nH]c(=O)c3c3cc(F)ccc3c2[nH]1: 90.6%
Clc1ccc(Nc2nnc(Cc3ccncc3)c3ccccc23)cc1: 97.2%
O=C(O)/C=C/c1cc(Br)c(Br)c(Br)c1Br: 84.7%
CC(C)N(CCC(=O)c1ccc2ccccc2c1)Cc1ccccc1: 101%

Sample 3 — tested at: 1 µM; endpoint: inhibition
Compound: C=CC(=O)N1CCC([C@@H]2CCNc3c(C(N)=O)c(-c4ccc(Oc5ccccc5)cc4)nn32)CC1
Ephrin type-A receptor 3 (EPHA3, Homo sapiens, UniProt P29320); cell-free assay: 0%
Epidermal growth factor receptor (EGFR, Homo sapiens, UniProt P00533, T790M); cell-free assay: 92%
Tyrosine-protein kinase ABL1, phosphorylated (ABL1, Homo sapiens, UniProt P00519, H396P); enzyme activity, inhibitor: 6%
Serine/threonine-protein kinase pim-2 (PIM2, Homo sapiens, UniProt Q9P1W9); enzyme activity, inhibitor: 0%
Mitogen-activated protein kinase 15 (MAPK15, Homo sapiens, UniProt Q8TD08); enzyme activity, inhibitor: 9%
Bone morphogenetic protein receptor type-1B (BMPR1B, Homo sapiens, UniProt O00238); enzyme activity, inhibitor: 27%
Activin receptor type-2B (ACVR2B, Homo sapiens, UniProt Q13705); cell-free assay: 11%
Serine/threonine-protein kinase 38 (STK38, Homo sapiens, UniProt Q15208); enzyme activity, inhibitor: 10%
Mast/stem cell growth factor receptor Kit (KIT, Homo sapiens, UniProt P10721, D816H); enzyme activity, inhibitor: 16%
Receptor-type tyrosine-protein kinase FLT3 (FLT3, Homo sapiens, UniProt P36888); enzyme activity, inhibitor: 34%
Epidermal growth factor receptor (EGFR, Homo sapiens, UniProt P00533, A750P/del747-749); cell-free assay: 24%

Sample 4 — tested at: 1 µM; endpoint: remaining binding
SMILES: CCCOc1ccc([C@H]2[C@H](C(=O)O)[C@@H](c3ccc4c(c3)OCO4)CN2CC(=O)Nc2c(CC)cccc2CC)cc1
RAF proto-oncogene serine/threonine-protein kinase (RAF1, Homo sapiens, UniProt P04049); cell-free assay, competition with immobilised ligand: 98%
Tyrosine-protein kinase Fyn (FYN, Homo sapiens, UniProt P06241); cell-free assay, competition with immobilised ligand: 100%
Tyrosine-protein kinase JAK2, JH1 (JAK2, Homo sapiens, UniProt O60674); cell-free assay, competition with immobilised ligand: 53%
Citron Rho-interacting kinase (CIT, Homo sapiens, UniProt O14578); cell-free assay, competition with immobilised ligand: 83%
Serine/threonine-protein kinase 3 (STK3, Homo sapiens, UniProt Q13188); cell-free assay, competition with immobilised ligand: 96%
Ephrin type-B receptor 4 (EPHB4, Homo sapiens, UniProt P54760); cell-free assay, competition with immobilised ligand: 100%
Leukocyte tyrosine kinase receptor (LTK, Homo sapiens, UniProt P29376); cell-free assay, competition with immobilised ligand: 100%
Serine/threonine-protein kinase 4 (STK4, Homo sapiens, UniProt Q13043); cell-free assay, competition with immobilised ligand: 99%
Dual specificity protein kinase CLK1 (CLK1, Homo sapiens, UniProt P49759); cell-free assay, competition with immobilised ligand: 87%
TGF-beta receptor type-2 (TGFBR2, Homo sapiens, UniProt P37173); cell-free assay, competition with immobilised ligand: 95%
Ephrin type-B receptor 6 (EPHB6, Homo sapiens, UniProt O15197); cell-free assay, competition with immobilised ligand: 65%
Serine/threonine-protein kinase ULK1 (ULK1, Homo sapiens, UniProt O75385); cell-free assay, competition with immobilised ligand: 68%
Leucine-rich repeat serine/threonine-protein kinase 2 (LRRK2, Homo sapiens, UniProt Q5S007); cell-free assay, competition with immobilised ligand: 79%
Cyclin-dependent kinase 11A (CDK11A, Homo sapiens, UniProt Q9UQ88); binding, competition with immobilised ligand: 98%
AP2-associated protein kinase 1 (AAK1, Homo sapiens, UniProt Q2M2I8); binding: 95%
Serine/threonine-protein kinase TNNI3K (TNNI3K, Homo sapiens, UniProt Q59H18); cell-free assay, competition with immobilised ligand: 100%

For quick reference, copied from above (sample 4):
Serine/threonine-protein kinase 4 (STK4, Homo sapiens, UniProt Q13043); cell-free assay, competition with immobilised ligand: 99%
Dual specificity protein kinase CLK1 (CLK1, Homo sapiens, UniProt P49759); cell-free assay, competition with immobilised ligand: 87%
TGF-beta receptor type-2 (TGFBR2, Homo sapiens, UniProt P37173); cell-free assay, competition with immobilised ligand: 95%
Ephrin type-B receptor 6 (EPHB6, Homo sapiens, UniProt O15197); cell-free assay, competition with immobilised ligand: 65%
Serine/threonine-protein kinase ULK1 (ULK1, Homo sapiens, UniProt O75385); cell-free assay, competition with immobilised ligand: 68%
